Measured values collected from several papers.
± gives the spread as reported.

Structure (SMILES) = CC(C)(O)c1cc(Nc2cc(Oc3cn(C4CC4)nc3C3CCOCC3)ccn2)ccn1; assay = item: Diarrhea; test system = patients with advanced cancer; conditions = oral; measurement = treatment-emergent adverse events; value = 0%
Structure (SMILES) = CCCCCOc1ccc(-c2ccc(-c3ccc(C(=O)N[C@H]4C[C@@H](O)[C@@H](OCC[N+](C)(C)C)NC(=O)[C@@H]5[C@@H](O)[C@@H](C)CN5C(=O)[C@H]([C@@H](C)O)NC(=O)[C@H]([C@H](O)[C@@H](O)c5ccc(O)cc5)NC(=O)[C@@H]5C[C@@H](O)CN5C(=O)[C@H]([C@@H](C)O)NC4=O)cc3)cc2)cc1; test system = adult ICU patients, mITT, serum; conditions = dose not given, day 30; measurement = magnesium; value = 0.7 mmol/L
Structure (SMILES) = COc1cc2c(Oc3ccc4[nH]c(C)cc4c3F)ccnc2cc1OCC1(N)CC1; test system = paediatric refractory sarcoma patients; conditions = 10 mg; measurement = mouth ulcer incidence; value = 0%
Structure (SMILES) = Cn1ncc(-c2nc(N[C@H]3CC[C@H](N)CC3)ncc2Cl)c1CC1CC1; assay = HPLC-MS/MS; test system = patients, plasma; conditions = oral, 8 mg, day 1; measurement = AUC; value = 573 ng·h/mL
Structure (SMILES) = C[C@]1(O)C[C@@](N)(c2ccc(-c3nc4n(c3-c3ccccc3)COc3ccncc3-4)cc2)C1; test system = human, advanced or metastatic solid tumours; conditions = 28 mg intermittent, phase I dose escalation; measurement = patients with Anemia TEAE; value = 0%
Structure (SMILES) = Fc1ccc([C@@H]2CCNC[C@H]2COc2ccc3c(c2)OCO3)cc1; assay = item: Headache; test system = healthy volunteers; conditions = oral, dose not given, given -1 h relative to LSD, with: LSD; how to read = direction not given; measurement = List of Complaints score; value = 0 score
Structure (SMILES) = N[C@@H]1c2ccccc2OC12CCN(c1cnc3c(N4CCCc5ncccc54)n[nH]c3n1)CC2; test system = advanced solid tumour patients; conditions = oral, 60 mg once daily; measurement = serious TEAE grade ≥3; value = 20%
Structure (SMILES) = CO[C@H]1C[C@@H]2CC[C@@H](C)[C@@](O)(O2)C(=O)C(=O)N2CCCC[C@H]2C(=O)O[C@H]([C@H](C)C[C@@H]2CC[C@@H](OC(=O)NCCOCCOCCOCCOCCOCCOCCOCCOCCC(=O)N3CCc4cc(Cn5nc(-c6ccc7oc(N)nc7c6)c6c(N)ncnc65)ccc4C3)[C@H](OC)C2)C[C@@H](O)[C@H](C)/C=C(\C)[C@@H](O)[C@@H](OC)C(=O)[C@H](C)C[C@H](C)/C=C/C=C/C=C/1C; test system = patients with advanced solid tumours; conditions = intravenous, 16 mg weekly, grade 3 or higher; measurement = decreased appetite incidence; value = 0%
Structure (SMILES) = C[C@@H](NC(=O)N1C(=O)[C@H](Cc2ccnc(N)c2)[C@H]1C(=O)O)C1CCCCC1; test system = healthy adult Chinese volunteers; conditions = continuous intravenous infusion, 1.5 mg/kg/h, 5-day infusion, CTCAE 5.0 grading; measurement = incidence of diarrhea; value = 0%
Structure (SMILES) = CCN1CCN(Cc2ccc(Nc3ncc(F)c(-c4cc(F)c5nc6n(c5c4)[C@H](C)CCC6)n3)nc2)CC1; assay = Phase Ia dose escalation; test system = patients with advanced solid tumours; conditions = dose not given, monotherapy, grade ≥3; measurement = blood bilirubin increased incidence; value = 0%
Structure (SMILES) = O=C(Nc1ccccc1)C1CCN(C(=O)Oc2cccnc2)CC1; assay = adverse event reporting; test system = healthy women; conditions = oral, 100 mg, 9 days; measurement = subjects with affect lability; value = 0%
Structure (SMILES) = CC(C)[C@@H]1NC(=O)CNC(=O)[C@H](CC(N)=O)NC(=O)[C@H](CCCNC(=N)N)NC(=O)[C@H](Cc2ccc(O)cc2)NC(=O)[C@H](C(C)C)NC(=O)[C@@H](NC(=O)[C@@H](NC(=O)[C@H](CC(N)=O)NC(=O)[C@H](Cc2c[nH]c3ccccc23)NC(=O)[C@H](C)NC(=O)[C@H](Cc2ccccc2)NC(=O)CN)C(C)C)CSSC[C@@H](C(=O)N[C@@H](Cc2cnc[nH]2)C(=O)N[C@@H](CCCNC(=N)N)C(=O)N[C@@H](CCCNC(=N)N)C(=O)N[C@@H](C)C(=O)N[C@@H](CC(N)=O)C(N)=O)NC(=O)[C@H](C(C)C)NC(=O)[C@H](CCCNC(=N)N)NC1=O; test system = ICR mice, blood; conditions = intraductal mammary, 5 mg/kg, day 5; measurement = platelet distribution width; value = 15.9 ± 0.57%
Structure (SMILES) = CCN(CCO)CCCC(C)Nc1ccnc2cc(Cl)ccc12 (centres unmarked); assay = item: Dyspnea grade 1; test system = newly diagnosed glioblastoma patients; conditions = oral, 400 mg/dose, with radiotherapy and temozolomide; measurement = patients with adverse event; value = 14%
Structure (SMILES) = C[C@]1(CO)Cc2ncn(-c3ccc(C#N)c(Cl)c3)c2C(=O)O1; test system = Chinese subjects; conditions = dose not given, all doses total; measurement = drug-related Acne incidence; value = 0%

A few entries again:
Structure (SMILES) = COc1cc2c(Oc3ccc4[nH]c(C)cc4c3F)ccnc2cc1OCC1(N)CC1; test system = paediatric refractory sarcoma patients; conditions = 10 mg; measurement = mouth ulcer incidence; value = 0%
Structure (SMILES) = Cn1ncc(-c2nc(N[C@H]3CC[C@H](N)CC3)ncc2Cl)c1CC1CC1; assay = HPLC-MS/MS; test system = patients, plasma; conditions = oral, 8 mg, day 1; measurement = AUC; value = 573 ng·h/mL
